Experimental data of several laboratories.
Protocols differ between the studies behind these lines. Values joined by “and” are separate records of one study, mostly repeats; a detail may differ. Numbers after ± are the reported error.
UGT1A4: UDP-glucuronosyltransferase 1A4 (UGT1A4, Homo sapiens, UniProt P22310)
Sequence of UniProt P22310 (whole entry, looked up): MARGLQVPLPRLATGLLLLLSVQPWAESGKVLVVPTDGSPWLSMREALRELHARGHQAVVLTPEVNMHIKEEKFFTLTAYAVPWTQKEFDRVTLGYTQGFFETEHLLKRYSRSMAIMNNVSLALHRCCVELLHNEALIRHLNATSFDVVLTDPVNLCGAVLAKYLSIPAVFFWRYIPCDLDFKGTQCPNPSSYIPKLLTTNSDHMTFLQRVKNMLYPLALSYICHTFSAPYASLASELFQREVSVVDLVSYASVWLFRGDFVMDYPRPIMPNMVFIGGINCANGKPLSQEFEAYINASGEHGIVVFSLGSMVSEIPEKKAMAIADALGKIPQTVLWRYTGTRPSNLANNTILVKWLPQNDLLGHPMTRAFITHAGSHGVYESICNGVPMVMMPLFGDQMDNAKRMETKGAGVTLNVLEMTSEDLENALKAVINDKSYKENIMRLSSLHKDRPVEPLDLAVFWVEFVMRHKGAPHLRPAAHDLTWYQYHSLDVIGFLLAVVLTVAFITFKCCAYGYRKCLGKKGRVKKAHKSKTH
CYP3A7: Cytochrome P450 3A7 (CYP3A7, Homo sapiens, UniProt P24462)
Sequence of UniProt P24462 (whole entry, looked up): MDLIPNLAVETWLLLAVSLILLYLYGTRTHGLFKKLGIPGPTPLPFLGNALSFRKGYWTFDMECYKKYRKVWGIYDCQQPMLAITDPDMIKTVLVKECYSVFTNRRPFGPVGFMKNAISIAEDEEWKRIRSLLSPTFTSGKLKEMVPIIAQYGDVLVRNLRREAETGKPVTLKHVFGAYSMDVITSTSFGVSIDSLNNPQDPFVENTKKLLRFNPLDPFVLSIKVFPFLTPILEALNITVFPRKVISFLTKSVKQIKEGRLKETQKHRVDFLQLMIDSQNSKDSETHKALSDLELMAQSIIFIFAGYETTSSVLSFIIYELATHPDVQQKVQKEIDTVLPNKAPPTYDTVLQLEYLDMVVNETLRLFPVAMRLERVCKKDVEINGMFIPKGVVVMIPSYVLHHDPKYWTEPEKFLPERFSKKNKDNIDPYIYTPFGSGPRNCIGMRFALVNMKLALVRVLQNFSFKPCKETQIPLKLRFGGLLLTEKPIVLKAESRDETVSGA
Trypsin: Trypsin (Sus scrofa, UniProt P00761)
Sequence of UniProt P00761 (whole entry, looked up): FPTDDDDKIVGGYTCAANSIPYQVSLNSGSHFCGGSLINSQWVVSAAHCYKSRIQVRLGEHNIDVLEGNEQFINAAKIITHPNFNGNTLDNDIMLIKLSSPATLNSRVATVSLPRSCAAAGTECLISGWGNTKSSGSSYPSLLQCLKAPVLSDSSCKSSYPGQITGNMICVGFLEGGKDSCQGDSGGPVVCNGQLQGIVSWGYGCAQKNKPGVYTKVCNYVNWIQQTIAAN
Sequence of UniProt P08684 (whole entry, looked up): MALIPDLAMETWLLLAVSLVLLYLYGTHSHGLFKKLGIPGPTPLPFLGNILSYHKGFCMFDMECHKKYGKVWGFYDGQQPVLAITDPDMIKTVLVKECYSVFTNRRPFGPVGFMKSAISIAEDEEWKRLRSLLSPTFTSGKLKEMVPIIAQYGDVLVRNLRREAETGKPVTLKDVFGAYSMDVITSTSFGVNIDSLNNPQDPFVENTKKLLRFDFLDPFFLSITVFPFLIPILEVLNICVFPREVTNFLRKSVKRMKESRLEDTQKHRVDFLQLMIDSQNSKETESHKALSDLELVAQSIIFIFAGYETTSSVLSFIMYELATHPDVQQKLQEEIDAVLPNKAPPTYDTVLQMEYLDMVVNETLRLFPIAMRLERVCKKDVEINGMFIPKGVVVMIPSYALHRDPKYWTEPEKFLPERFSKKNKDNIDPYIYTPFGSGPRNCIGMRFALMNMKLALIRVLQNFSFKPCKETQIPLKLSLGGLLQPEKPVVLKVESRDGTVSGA
Sequence of UniProt Q96JM7 (whole entry, looked up): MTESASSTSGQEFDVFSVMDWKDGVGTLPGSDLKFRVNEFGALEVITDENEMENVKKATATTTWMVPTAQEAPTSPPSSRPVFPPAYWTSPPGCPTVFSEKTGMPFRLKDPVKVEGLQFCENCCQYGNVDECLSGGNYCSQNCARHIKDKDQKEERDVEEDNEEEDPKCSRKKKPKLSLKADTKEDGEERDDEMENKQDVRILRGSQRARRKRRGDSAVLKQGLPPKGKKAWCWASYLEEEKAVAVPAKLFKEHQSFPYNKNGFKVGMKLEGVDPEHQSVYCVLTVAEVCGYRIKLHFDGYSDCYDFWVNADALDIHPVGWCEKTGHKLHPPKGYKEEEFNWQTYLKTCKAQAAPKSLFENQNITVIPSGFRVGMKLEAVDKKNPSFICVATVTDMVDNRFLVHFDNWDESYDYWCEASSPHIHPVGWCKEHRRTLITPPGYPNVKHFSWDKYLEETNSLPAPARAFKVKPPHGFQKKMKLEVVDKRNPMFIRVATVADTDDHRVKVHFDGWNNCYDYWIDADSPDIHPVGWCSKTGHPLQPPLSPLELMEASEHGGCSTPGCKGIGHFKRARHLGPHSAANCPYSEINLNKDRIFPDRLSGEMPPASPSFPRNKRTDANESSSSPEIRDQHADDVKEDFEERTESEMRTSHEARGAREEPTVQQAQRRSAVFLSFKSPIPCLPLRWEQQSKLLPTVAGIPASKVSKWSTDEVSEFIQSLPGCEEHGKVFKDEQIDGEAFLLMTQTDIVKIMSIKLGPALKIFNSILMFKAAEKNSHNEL
Sequence of UniProt P02754 (whole entry, looked up): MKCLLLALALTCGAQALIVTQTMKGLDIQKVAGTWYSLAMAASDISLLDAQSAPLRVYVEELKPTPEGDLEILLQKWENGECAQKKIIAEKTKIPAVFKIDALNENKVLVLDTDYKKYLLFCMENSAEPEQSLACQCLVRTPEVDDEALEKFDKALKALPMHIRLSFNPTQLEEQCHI

Compound | tested on | test | system | conditions | how to read | measurement | result
COc1cc(O)c2c(c1)C(=O)c1cc(C)cc(O)c1C2=O | HepaRG co-cultured with HK-2 | MTT | – | 66.67 µM, 48 h | reference: untreated control | cell viability | 64.9 ± 10.7%
CN1C[C@@H]2C[C@H]1CN2c1cc2c(cc1F)c(=O)c(C(=O)O)cn2C1CC1 | ABCG2 (sheep) | basolateral-to-apical transport, transepithelial transport | MDCK-II transduced with ovine ABCG2, HBSS with HEPES | 10 µM, 4 h | – | percent transported | 54.7 ± 5.54%
COc1cccc2c(Nc3ccc4[nH]c(C(=O)N/N=C/c5ccc(SC)cc5)cc4c3)cc(C)nc12 | COS-7 | WST-8 | – | 10 µM, 24 h, 0.1% DMSO, unit not given | reference: vehicle control | metabolic activity | 0.41 ± 0.01
O=C(c1ccc(C(=O)N2CCC(N3CCCC3)CC2)c(Nc2ccccc2)c1)N1CCC(N2CCCC2)CC1 | Lethal(3)malignant brain tumor-like protein 3 (Homo sapiens, UniProt Q96JM7) | FRAP | human cells | 1 µM | – | FRAP recovery half-time | 19.9 s
CC[C@H]1[C@@H](O)[C@@H]2[C@H](CC[C@]3(C)[C@@H]([C@H](C)CCNC(=O)NS(=O)(=O)c4ccc(C(C)(C)C)cc4)CC[C@@H]23)[C@@]2(C)CC[C@@H](O)C[C@@H]12 | Cytochrome P450 3A4 (CYP3A4, Homo sapiens, UniProt P08684) | – | human, plasma | geometric mean, together with: fluconazole | – | CL/F | 3.25 L/h
COc1cc2c(c(OC)c1OC)C(=O)c1c(cc(C)c(O)c1OC)C2=O | HepaRG co-cultured with HK-2 | MTT | – | 133.33 µM, 48 h | reference: untreated control | cell viability | 69.5 ± 6.7%
C=CC(=O)N1C[C@H](Nc2ncnc3[nH]ccc23)CC[C@@H]1C | CYP3A | substrate | human, plasma | oral, single dose, together with: itraconazole multiple doses | – | apparent volume Vz/F | 164 L
O=C(O)COc1cccc(-c2nc(Nc3ccc4[nH]ncc4c3)c3ccccc3n2)c1 | UGT1A4 | enzyme activity, inhibitor | – | together with: diclofenac | – | IC50 | 46.6 µM
Clc1ccc(C(c2c[nH]c3ccccc23)c2c[nH]c3ccccc23)cc1 | COS-7 | – | – | 30 µM, 24 h, 0.1% DMSO, unit not given | reference: vehicle control | necrotic cells | 5.11 ± 1.42
C=C[C@@H]1C[C@]1(NC(=O)[C@@H]1C[C@@H](Oc2ncc(OC)c3ccc(Cl)cc23)CN1C(=O)[C@@H](NC(=O)OC(C)(C)C)C(C)(C)C)C(=O)NS(=O)(=O)C1CC1 | CYP3A7 | fluorescence | recombinant bactosomes | 20 µM, 10 min, pH 7.4, together with: dibenzylfluorescein at Km | reference: solvent control | remaining activity | ~35%
Cc1oc2ccccc2c1Cc1cc(I)c(OCC(=O)O)c(I)c1 | Voltage-gated inwardly rectifying potassium channel KCNH2 (KCNH2, Homo sapiens, UniProt Q12809) | potassium current, whole-cell patch clamp | HEK293 expressing hERG1 | 10 µM, envelope-of-tails at +40 mV, 10 mM K+ | reference: control | activation rate acceleration | 2.4 fold
CCCCC1=NC2(CCCC2)C(=O)N1Cc1ccc(-c2ccccc2S(=O)(=O)Nc2noc(C)c2C)c(COCC)c1 | CYP2C9 | enzyme induction, inducer | human | – | – | Hill coefficient | 1
CC(C)C[C@H](NC(=O)CNC(=O)[C@H](C)NC(=O)[C@H](CC(C)C)NC(=O)[C@H](CC(N)=O)NC(=O)[C@H](Cc1c[nH]c2ccccc12)NC(=O)[C@@H](NC(=O)[C@H](Cc1ccc(O)cc1)NC(=O)[C@H](Cc1ccc(O)cc1)NC(=O)[C@H](CO)NC(=O)[C@H](CCCNC(=N)N)NC(=O)[C@H](Cc1c[nH]cn1)NC(=O)[C@@H](N)Cc1c[nH]c2ccccc12)[C@@H](C)O)C(=O)N[C@H](C(=O)NCC(=O)N[C@@H](CCCCN)C(=O)O)C(C)C | MMP-2 human recombinant | – | – | 48 h, pH 7.5, 37 °C, together with: MMP-2 5 ng/µL | – | cleavage efficiency | 95.2%
Cn1cncc1[C@@](N)(c1ccc(Cl)cc1)c1ccc2c(c1)c(-c1cccc(Cl)c1)cc(=O)n2C | UGT1A4 | reaction phenotyping | human liver microsomes | – | – | fraction metabolised by UGT1A4 | ~61% and 60.5%
CC1=C[C@H](O)CC(C)(C)[C@H]1/C=C/C(C)=C/C=C/C(C)=C/C=C/C=C(C)/C=C/C=C(C)/C=C/C1=C(C)C[C@@H](O)CC1(C)C | Beta-lactoglobulin (LGB, Bos taurus, UniProt P02754) | – | protein-carotenoid complex | 298 K | – | zeta potential | -9.33 ± 0.3 mV
Cc1cnc(C(=O)N[C@H]2CCCCC/C=C\[C@@H]3C[C@@]3(C(=O)NS(=O)(=O)C3CC3)NC(=O)[C@@H]3C[C@@H](Oc4nc5ccccc5c5ccccc45)CN3C2=O)cn1 | CYP3A7 | fluorescence | recombinant bactosomes | 20 µM, 10 min, pH 7.4, together with: dibenzylfluorescein at Km | reference: solvent control | remaining activity | ~25%
CC[C@H](C)[C@H](NC(=O)[C@H](CO)NC(=O)[C@H](Cc1ccc(O)cc1)NC(=O)[C@H](CC(=O)O)NC(=O)[C@H](CO)NC(=O)[C@@H](NC(=O)[C@H](Cc1ccccc1)NC(=O)[C@@H](NC(=O)CNC(=O)[C@H](CCC(=O)O)NC(=O)[C@H](C)NC(=O)[C@@H](N)Cc1ccc(O)cc1)[C@@H](C)O)[C@@H](C)CC)C(=O)N[C@@H](C)C(=O)N[C@@H](CCSC)C(=O)N[C@@H](CC(=O)O)C(=O)N[C@@H](CCCCN)C(=O)N[C@H](C(=O)N[C@@H](Cc1c[nH]cn1)C(=O)N[C@@H](CCC(N)=O)C(=O)N[C@@H](CCC(N)=O)C(=O)N[C@@H](CC(=O)O)C(=O)N[C@@H](Cc1ccccc1)C(=O)N[C@H](C(=O)N[C@@H](CC(N)=O)C(=O)N[C@@H](Cc1c[nH]c2ccccc12)C(=O)N[C@@H](CC(C)C)C(=O)N[C@@H](CC(C)C)C(=O)N[C@@H](C)C(=O)N[C@@H](CCC(N)=O)C(=O)N[C@@H](CCCCN)C(=O)NCC(=O)N[C@@H](CCCCN)C(=O)N[C@@H](CCCCN)C(=O)N[C@@H](CC(N)=O)C(=O)N[C@@H](CC(=O)O)C(=O)N[C@@H](Cc1c[nH]c2ccccc12)C(=O)N[C@@H](CCCCN)C(=O)N[C@@H](Cc1c[nH]cn1)C(=O)N[C@@H](CC(N)=O)C(=O)N[C@H](C(=O)N[C@H](C(=O)N[C@@H](CCC(N)=O)C(=O)O)[C@@H](C)O)[C@@H](C)CC)C(C)C)[C@@H](C)CC | Trypsin | LC-MS, item: fragment 1-33 | – | 18 h, pH 8.0, 37 °C, together with: trypsin 2.5 mg/mL | – | fragment formed | 13%
CC(C)C[C@H](NC(=O)C[C@H](O)[C@H](CC(C)C)NC(=O)[C@H](Cc1c[nH]cn1)NC(=O)CNC(=O)[C@@H](NC(=O)[C@H](C)NC(=O)[C@H](Cc1c[nH]c2ccccc12)NC(=O)[C@H](CCC(N)=O)NC(=O)[C@@H](Cc1ccccc1)NC(=O)COCCOCCNC(=O)CCC(C(=O)O)N1CCN(CC(=O)O)CCN(CC(=O)O)CCN(CC(=O)O)CC1)C(C)C)C(N)=O (some centres unmarked) [lutetium-177 labelled] | – | – | female BALB/c nu/nu mice, blood | intravenous, 100 pmol, 90 h, together with: PA 300 µg | – | tissue uptake | 0.004 ± 0.002 %ID/g
CC[C@H](C)[C@H](NC(=O)[C@H](CO)NC(=O)[C@H](Cc1ccc(O)cc1)NC(=O)[C@H](CC(=O)O)NC(=O)[C@H](CO)NC(=O)[C@@H](NC(=O)[C@H](Cc1ccccc1)NC(=O)[C@@H](NC(=O)CNC(=O)[C@H](CCC(=O)O)NC(=O)[C@H](C)NC(=O)[C@H](Cc1ccc(O)cc1)NCC(F)(F)F)[C@@H](C)O)[C@@H](C)CC)C(=O)N[C@@H](C)C(=O)N[C@@H](CCSC)C(=O)N[C@@H](CC(=O)O)C(=O)N[C@@H](CCCCN)C(=O)N[C@H](C(=O)N[C@@H](Cc1c[nH]cn1)C(=O)N[C@@H](CCC(N)=O)C(=O)N[C@@H](CCCCNC(=O)COCCOCCNC(=O)COCCOCCNC(=O)CC[C@H](NC(=O)CCCCCCCCCCCCCCCCC(=O)O)C(=O)O)C(=O)N[C@@H](CC(=O)O)C(=O)N[C@@H](Cc1ccccc1)C(=O)N[C@H](C(=O)N[C@@H](CC(N)=O)C(=O)N[C@@H](Cc1c[nH]c2ccccc12)C(=O)N[C@@H](CC(C)C)C(=O)N[C@@H](CC(C)C)C(=O)N[C@@H](C)C(=O)N[C@@H](CCC(N)=O)C(=O)N[C@@H](CCCCN)C(=O)NCC(=O)N[C@@H](CCCCN)C(=O)N[C@@H](CCCCN)C(=O)N[C@@H](CC(N)=O)C(=O)N[C@@H](CC(=O)O)C(=O)N[C@@H](Cc1c[nH]c2ccccc12)C(=O)N[C@@H](CCCCN)C(=O)N[C@@H](Cc1c[nH]cn1)C(=O)N[C@@H](CC(N)=O)C(=O)N[C@H](C(=O)N[C@H](C(=O)N[C@@H](CCC(N)=O)C(=O)O)[C@@H](C)O)[C@@H](C)CC)C(C)C)[C@@H](C)CC | Trypsin | LC-MS, item: fragment 1-32 | – | 18 h, pH 8.0, 37 °C, together with: trypsin 2.5 mg/mL | – | fragment formed | 7%
CC1(C)CCC2(CC1)N[C@@H](C(=O)N[C@@H]1CC[C@@H](C(N)=O)OC1)[C@H](c1ccnc(Cl)c1F)[C@]21C(=O)Nc2cc(Cl)ccc21 | ATP-dependent translocase ABCB1 (ABCB1, Homo sapiens, UniProt P08183) | – | Caco-2 monolayers | 100 µM, 120 min, no inhibitor | – | Papp A to B | 4.42 ×10⁻⁶ cm/s

Repeated from above:
Compound | tested on | test | system | conditions | how to read | measurement | result
COc1cc(O)c2c(c1)C(=O)c1cc(C)cc(O)c1C2=O | HepaRG co-cultured with HK-2 | MTT | – | 66.67 µM, 48 h | reference: untreated control | cell viability | 64.9 ± 10.7%
Cn1cncc1[C@@](N)(c1ccc(Cl)cc1)c1ccc2c(c1)c(-c1cccc(Cl)c1)cc(=O)n2C | UGT1A4 | reaction phenotyping | human liver microsomes | – | – | fraction metabolised by UGT1A4 | ~61% and 60.5%
